Measurements pooled from the literature.
A part holds a random share of what one study measured.

Block 1 — method: universal PBM; molecule type: double-stranded DNA, one strand shown; matrix: in vitro; tested at: not given; reading: higher = stronger binding
Target: Sal-like protein 4, full length isoform B (SALL4, Homo sapiens, UniProt Q9UJQ4-2, residues 1-616)
Notes: 8-mer, flanks averaged, mean of replicates
For `CTCGGCAG`, the E-score was -0.209.
`AACAAACA` has an E-score of 0.188.
For `AAAGATGG`, the E-score was 0.0889.
The E-score of `CAACTCTC` is reported as -0.105.
The E-score of `AATGAGCT` is reported as 0.098.
With `CCTGTCAG` the E-score was -0.162.
`ATTCCGAC` gave an E-score of -0.0882.
The E-score of `GGGTTTAC` is reported as -0.0531.
The E-score of `CCAGTTTA` is reported as 0.0322.
The E-score of `AAACTCTA` is reported as 0.131.
`CGCCACGC` has an E-score of -0.351.
`AGTGCACC` gave an E-score of -0.1.
With `CATCAGCA` the E-score was 0.0263.
With `AGTTCGGC` the E-score was -0.0941.
The E-score of `AACGATCT` is reported as -0.00057.
The E-score of `GGGTGGGA` is reported as -0.0841.
`TCGAGCGA` gave an E-score of -0.104.
`ACCCGTAA` gave an E-score of -0.0193.
`ACCCCAAA` has an E-score of -0.237.
`ACGTTTCA` gave an E-score of 0.0446.
With `GAGTCATC` the E-score was -0.185.

Block 2 — method: RNA Bind-n-Seq; molecule type: RNA; matrix: in vitro; tested at: 365 nM; baseline: no-protein control; reading: higher = stronger binding
Target: RNA binding protein fox-1 homolog 2, RRM domain, GST-SBP tag (RBFOX2, Homo sapiens, UniProt O43251-10, residues 100-194)
Notes: natural RNA segment, single round, ends assumed
Constant ends, left off below: GGGAGUUCUACAGUCCGACGAUC … UGGAAUUCUCGGGUGCCAA
Target sequence (chain): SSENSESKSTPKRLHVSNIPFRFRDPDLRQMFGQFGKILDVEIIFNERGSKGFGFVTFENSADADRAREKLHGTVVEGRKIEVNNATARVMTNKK
`GUUUUUGUUUUCUCUUCCAAGGGCCGUCCCGUUGUGUUAGGAAGGGUGAGUGGCUGGUUCCAGGGUGGGCCGGUGCCAGCUCCGGGGUGGACUGAACAGCGGCGGCUGUC` — result for “RBNS enrichment (R)”: 1.07.
`AAGUGUGUUUUGUCUAUAAAGUGCAAGUGUUUUAAUGUUUAUGUAAAUUAUGCAGGUGAUAACAUGGUUUGGAACUGUUUAUUGGGCUCUUUAACUGAAUUUUCAAAUGA` — result for “RBNS enrichment (R)”: 1.13.
For `GGACUUGUAAGUCUGCAGGCUGGAGAAGUCAGACCCUUCCCGCCUGGCACUCCUUGCUUUCAUCACCUUGACUUCUUCCUCUCAGUAGUGCCAAUCUCUCUAGGACCCUU`, “RBNS enrichment (R)” read 0.569.
`ACUGUCACGAGAAUAGCACGGGAAAGACUGGCCCCCAUGAUUCAAUUACCUCCCCCUGGGUCUGUCCCACAACACGUGGGAAUUCUGGGAGAUACAAUUCAAGUUGAGAU`: “RBNS enrichment (R)” 1.44.
`UUCCAAGUCACCUGUGCUUUCUGGGACCAAAGAAUGGGCACCUGCUGGAGUCCGGGCAGAGCUUUCUCAGUUGUAUUGCUACUCCAGACCUCACCAUAGGUUGGGGUCCC`: “RBNS enrichment (R)” 0.98.
`UGCUUUUGAGGCCCUCCCUCAGCUCUCUGUGGGUAGGGGUUACAAUUCACAUUCCUUAUUCUGAGAAUUUGGCCCCAGCUGUUUGCCUUUGACUCCCUGACCUCCAGAGC` — result for “RBNS enrichment (R)”: 0.411.
`AAGCCACUAUGCAAUUUCUACCAAUGGAGAGAUUAGGGAAGCAAAUUAAGCCUCAUUCAGUAGGUCUGCUGUCUGGUGGAACUUACGGAACUCAUUUCCUCCUCUAUCCC` — result for “RBNS enrichment (R)”: 0.309.
`UCCUGUAACCUAGCCUGUAUUAUACAAGAAAACUUGAGCAGGACAUUUCAAGAGAAUAUGUUGGCCUAAUUGUUGGGUUGGCUGGGACCUGCUCUGAAGGGAUCCCUCAG`: “RBNS enrichment (R)” 0.438.
For `UGGAGACAUGGGCAAGCAUUAGUGGCUUCAGAUUGGAGACCAGCCUGGGACUUCCCUGCAGUGAGAGAGCAUCUCCCCCUGGUCCAUGCCCCUCCUGUGCAGAAGGGAGC`, “RBNS enrichment (R)” read 1.03.
`GUGGCUAGAGGUGGGGUGGGAAGAGAGGAGGCCAGGCCAGGCCCUCAGGAAUUCCCUGGUUUCCACUGGGCCACCCACUUGCUGGACAGUCUGAGCCAAGUCCCUCCUGC` — result for “RBNS enrichment (R)”: 0.293.
`GGUGUUUAGUAUACCCAAGCAGAUAGGUGUCGAUCGAACAGGAGCAGGGAGAAUACUUCCAACAGUUGAGGUGUUACCAAACCACUUGAGAAUUCAUGAGCACUUUAACU` — result for “RBNS enrichment (R)”: 0.356.
Under “RBNS enrichment (R)”, `AGAGAAUGGGAGGAGGGUCAUGUUGAAGUGUAGCCACUGGAACUUUCUUGCAUUUAUGGAGUUGCUUUUUCUUUCCCAAGGAAACUGAUGUUUGCCUGUCCGCUUUAUCU` is recorded as 6.21.

Block 3 — method: protein-binding microarray; molecule type: double-stranded DNA, one strand shown; matrix: in vitro; tested at: not given; reading: higher = stronger binding
Target: Transcriptional repressor CTCF (CTCF, Homo sapiens, UniProt P49711, residues 1-727, full length assumed)
UniProt P49711, sequence (whole entry, looked up): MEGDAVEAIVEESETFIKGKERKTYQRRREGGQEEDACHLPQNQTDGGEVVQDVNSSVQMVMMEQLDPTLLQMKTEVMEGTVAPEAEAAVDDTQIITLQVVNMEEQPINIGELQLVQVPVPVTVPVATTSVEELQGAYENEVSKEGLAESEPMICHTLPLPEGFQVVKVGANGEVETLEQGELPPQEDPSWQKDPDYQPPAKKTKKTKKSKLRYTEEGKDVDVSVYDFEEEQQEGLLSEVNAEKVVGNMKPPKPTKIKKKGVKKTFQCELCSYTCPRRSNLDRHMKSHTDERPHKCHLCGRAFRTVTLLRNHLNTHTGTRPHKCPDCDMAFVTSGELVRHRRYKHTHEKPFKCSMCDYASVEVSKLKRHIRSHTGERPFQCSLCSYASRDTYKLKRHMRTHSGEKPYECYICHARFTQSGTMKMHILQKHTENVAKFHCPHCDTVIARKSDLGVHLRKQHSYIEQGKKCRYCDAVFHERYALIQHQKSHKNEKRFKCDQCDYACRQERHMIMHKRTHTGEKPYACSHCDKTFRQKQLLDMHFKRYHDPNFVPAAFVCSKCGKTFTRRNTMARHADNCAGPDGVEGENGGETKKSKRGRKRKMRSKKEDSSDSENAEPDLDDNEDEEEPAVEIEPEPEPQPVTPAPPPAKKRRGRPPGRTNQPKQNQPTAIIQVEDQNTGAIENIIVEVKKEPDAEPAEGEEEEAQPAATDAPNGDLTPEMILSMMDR
Notes: k-mer, scored over probes, only values ≥0.25
For `GCGCATCC`, the E-score was 0.34.
With `AGGGGGGA` the E-score was 0.25.
For `AATATAAA`, the E-score was 0.337.
`AAACAAAT` has an E-score of 0.278.
For `CGATATAA`, the E-score was 0.265.
`CATAATAC` has an E-score of 0.289.
`ATGTGTTA` has an E-score of 0.309.
For `AAAATTAT`, the E-score was 0.321.
The E-score of `CGTATAAC` is reported as 0.275.
The E-score of `ACGCGCCC` is reported as 0.308.
`GCGCATAA` gave an E-score of 0.371.
For `TGGAAAAA`, the E-score was 0.264.
For `ACATGTTG`, the E-score was 0.26.
`AACATGTG` has an E-score of 0.298.
For `ATTTTGCG`, the E-score was 0.313.
`ACCACACG` gave an E-score of 0.257.
For `CTGGTGGC`, the E-score was 0.288.
With `ATCACCAT` the E-score was 0.258.
For `ATAGCGCA`, the E-score was 0.27.
The E-score of `AATACAAG` is reported as 0.276.
`ACATACAA` has an E-score of 0.338.
For `ATGTGAAT`, the E-score was 0.268.
For `ATATTAAT`, the E-score was 0.376.

Block 4 — method: protein binding microarray; molecule type: double-stranded DNA, one strand shown; matrix: in vitro; tested at: not given; baseline: not given; reading: higher = stronger binding
Target: Histone acetyltransferase KAT6A, winged helix 2, GST fusion (KAT6A, Homo sapiens, UniProt Q92794, residues 85-181)
Notes: 8-mer, flanks averaged, mean of 2 arrays, mostly near background
Residues (chain): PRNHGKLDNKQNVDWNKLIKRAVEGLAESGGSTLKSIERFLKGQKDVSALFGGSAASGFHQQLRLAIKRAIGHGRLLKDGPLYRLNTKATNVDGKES
With `ACATCGGT` the E-score was -0.148.
`CTCTTAAG` gave an E-score of -0.0783.
The E-score of `GAGATGGC` is reported as -0.1.
For `GGCAGTTA`, the E-score was -0.0391.
`CACCATGC` has an E-score of 0.111.
`CTGGACGA` gave an E-score of -0.144.
`GACATATC` has an E-score of -0.0476.
`CAACCTAC` has an E-score of 0.0166.
`CAAGTGCA` gave an E-score of -0.0454.
`AATAAATA` has an E-score of 0.209.
With `AAAGGCCA` the E-score was -0.0804.
`ATTTCCGC` has an E-score of 0.0997.
`ACCATCAT` has an E-score of -0.195.
The E-score of `GAGTGCAC` is reported as -0.000295.
The E-score of `AAGGTTTC` is reported as 0.0179.
With `CCGGAGGC` the E-score was 0.0748.
`AAACGCGT` has an E-score of -0.104.
For `AGCGGTTG`, the E-score was -0.0409.
For `ATTGCGGC`, the E-score was 0.0168.
The E-score of `CCTGCACC` is reported as -0.0194.
The E-score of `CGAACGGA` is reported as 0.0539.
The E-score of `CACGCTTA` is reported as -0.0384.

Block 5 — method: RNA Bind-n-Seq; molecule type: RNA; matrix: in vitro; tested at: not given; baseline: input RNA pool; reading: higher = stronger binding
Target: RING finger protein unkempt homolog, zinc fingers 1-6, GST-SBP tag (UNK, Homo sapiens, UniProt Q9C0B0, residues 30-357)
UniProt Q9C0B0, sequence (30-357, looked up): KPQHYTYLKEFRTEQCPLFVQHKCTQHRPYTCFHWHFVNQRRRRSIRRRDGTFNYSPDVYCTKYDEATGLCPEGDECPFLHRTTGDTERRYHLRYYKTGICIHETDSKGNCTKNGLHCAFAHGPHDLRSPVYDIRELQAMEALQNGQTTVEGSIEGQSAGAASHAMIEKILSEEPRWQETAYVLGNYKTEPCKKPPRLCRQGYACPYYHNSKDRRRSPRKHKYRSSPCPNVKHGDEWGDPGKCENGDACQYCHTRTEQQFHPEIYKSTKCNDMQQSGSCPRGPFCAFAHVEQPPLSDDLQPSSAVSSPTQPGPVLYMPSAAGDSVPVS
Notes: RNA with constant flanks, human and mouse sites, ends assumed
Constant ends, left off below: GGGAGUUCUACAGUCCGACGAUC … CAACAGAGGAUUGAGCAUCA
`GGCUUUAUUUUGUGCCAUGGGAUCCUAAAUACUGACGCUACAGCACUGAACCUUUGGAAACUAGCUCUUCAAAGUAGCUCUUGCCUCUCUCUCUUUCGGGAUGAAGUUUUCCACAUUCAC` gave a bound/input enrichment of 0.181 ratio.
`CACCGGAGGCAUUUUCCCAACUGUCCAUUUUUGGAAAAUUCUCUAGAAACUCUGAGGUUUAGCAUUUCAAAUCUGAGCAUGCAGACACAUGCAGCUCGAAUGAGAACAUUUAUGUACUGG` gave a bound/input enrichment of 0.234 ratio.
`UACUUAAAUGAAAUAAAACCUCCCAUCAUACACUAUGACCUCAAACCAGGUAAUAUCCUUUUAGUAAAUGGUACAGCAUGUGGAGAGAUAAAAAUUACAGAUUUUGGUCUUUCCAAGAUC` gave a bound/input enrichment of 0.477 ratio.
`CACAAGAUGGAGCAGGAAAUGACCCGGUUACAUCGCAGAGUGUCAGAGGUGGAGGCUGUGCUUAGUCAGAAGGAGGUGGAGCUGAAGGCCUCUGAGACUCAGAGAUCCCUCCUGGAGCAG` has a bound/input enrichment of 0.133 ratio.
With `AGAGAGAGAAAAACUAGUAAAGGCUGAAAGAAAAUUCAUUGAAGAUAGAGUUAAAAAAAUCAUAGAGCUGAAAAAGAAAGUCUGUGGUGACUCAGAUAAAGGAUUUGUCGUUAUUAAUCA` the bound/input enrichment was 13.5 ratio.
For `AGUGGGAAUAUCACUUUUGAUGAGAUUGUCAACAUUGCUCGACAGAUGCGGCACCGAUCCUUAGCCAGAGAACUCUCUGGAACCAUUAAAGAGAUCCUGGGGACUGCCCAGUCAGUGGGC`, the bound/input enrichment was 0.241 ratio.
`CAAAAGCAGCUGGACUCAUCCAAUAGCACCAUCGCCAUCCUGCAAACCGAGAAAGACAAGCUGGACUUGGAAGUUACGGAUUCUAAGAAAGAACAAGAUGACCUUUUGGUGCUGUUAGCA` gave a bound/input enrichment of 0.223 ratio.
`AUUAACAAAAGCAAACAUAGACAGAACACACUGCCACGCCUAGGAAGAGAAGAUCAUCAAAUGAAUUUUCAUGGUUUUUAAUGUCUGAAUUCACAUCAUACUCGACUUUUUGGUUUUGUU` has a bound/input enrichment of 0.414 ratio.
`GGGGUGUUCCAGUCUACAGACACCUGCUAUGUCCUGUCCUUCGCAAUCAUAAUGCUGAACACCAGCCUACACAACCCCAAUGUCAAAGACAAGCCUACGGUGGAGAGAUUCAUCGCCAUG` gave a bound/input enrichment of 0.168 ratio.
`GCUGCCUGCACAGAGAAGAAAAUCCCUGUUGUGUUUAGACUACAAGAGGGUUAUGAUCAUAGCUACUACUUCAUUGCAACUUUCAUCGCUGACCACAUCAGACACCAUGCUAAGUACCUG` gave a bound/input enrichment of 0.227 ratio.
`ACAGGUUCUGAGUGGACCCGGACAGUACUCACUCUGAACUCUCGUUCUGAGGUAGAAUCUAUGCCCCCACCGAGGACCAGUGCCUCCUCAGUGAGUUUGCUUUCUGUACUGAGACAGCAG` gave a bound/input enrichment of 0.135 ratio.

Excerpt of the above (block 5):
`CACAAGAUGGAGCAGGAAAUGACCCGGUUACAUCGCAGAGUGUCAGAGGUGGAGGCUGUGCUUAGUCAGAAGGAGGUGGAGCUGAAGGCCUCUGAGACUCAGAGAUCCCUCCUGGAGCAG` has a bound/input enrichment of 0.133 ratio.
With `AGAGAGAGAAAAACUAGUAAAGGCUGAAAGAAAAUUCAUUGAAGAUAGAGUUAAAAAAAUCAUAGAGCUGAAAAAGAAAGUCUGUGGUGACUCAGAUAAAGGAUUUGUCGUUAUUAAUCA` the bound/input enrichment was 13.5 ratio.
For `AGUGGGAAUAUCACUUUUGAUGAGAUUGUCAACAUUGCUCGACAGAUGCGGCACCGAUCCUUAGCCAGAGAACUCUCUGGAACCAUUAAAGAGAUCCUGGGGACUGCCCAGUCAGUGGGC`, the bound/input enrichment was 0.241 ratio.
`CAAAAGCAGCUGGACUCAUCCAAUAGCACCAUCGCCAUCCUGCAAACCGAGAAAGACAAGCUGGACUUGGAAGUUACGGAUUCUAAGAAAGAACAAGAUGACCUUUUGGUGCUGUUAGCA` gave a bound/input enrichment of 0.223 ratio.
`AUUAACAAAAGCAAACAUAGACAGAACACACUGCCACGCCUAGGAAGAGAAGAUCAUCAAAUGAAUUUUCAUGGUUUUUAAUGUCUGAAUUCACAUCAUACUCGACUUUUUGGUUUUGUU` has a bound/input enrichment of 0.414 ratio.
`GGGGUGUUCCAGUCUACAGACACCUGCUAUGUCCUGUCCUUCGCAAUCAUAAUGCUGAACACCAGCCUACACAACCCCAAUGUCAAAGACAAGCCUACGGUGGAGAGAUUCAUCGCCAUG` gave a bound/input enrichment of 0.168 ratio.
`GCUGCCUGCACAGAGAAGAAAAUCCCUGUUGUGUUUAGACUACAAGAGGGUUAUGAUCAUAGCUACUACUUCAUUGCAACUUUCAUCGCUGACCACAUCAGACACCAUGCUAAGUACCUG` gave a bound/input enrichment of 0.227 ratio.
